# Experimental data collected from several papers.
# Compare with care: the assays were run in different laboratories. ± gives the spread as reported.
# UniProt P47872, sequence (whole entry, looked up): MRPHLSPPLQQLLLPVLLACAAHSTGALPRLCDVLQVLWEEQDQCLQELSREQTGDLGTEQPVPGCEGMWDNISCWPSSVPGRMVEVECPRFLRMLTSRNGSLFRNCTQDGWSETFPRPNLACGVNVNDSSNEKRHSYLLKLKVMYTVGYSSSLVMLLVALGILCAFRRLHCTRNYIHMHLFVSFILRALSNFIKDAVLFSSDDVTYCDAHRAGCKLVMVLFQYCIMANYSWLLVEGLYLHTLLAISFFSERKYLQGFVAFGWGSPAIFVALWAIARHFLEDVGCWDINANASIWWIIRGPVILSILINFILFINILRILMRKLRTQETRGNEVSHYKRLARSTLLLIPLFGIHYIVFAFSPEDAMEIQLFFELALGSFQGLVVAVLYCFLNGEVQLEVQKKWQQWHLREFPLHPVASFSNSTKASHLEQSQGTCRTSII
SMILES,tested on,test,system,conditions,how to read,endpoint,result
COc1cc(CCC(C)=O)ccc1O,mAb 3-LD3,"antibody binding, indirect competitive ELISA",,added: coating antigen hapten 4-OVA,,IC50,> 4 µg/mL
CN(C)c1cc(CN2CCCC2)c(O)c2c1C[C@H]1C[C@H]3[C@H](N(C)C)C(O)=C(C(N)=O)C(=O)[C@@]3(O)C(O)=C1C2=O,Streptococcus pneumoniae,,"ATCC 700905, Tet M ribosome protection",,,MIC,0.25 µg/mL
NS(=O)(=O)Nc1ncnc(OCCOc2ncc(Br)cn2)c1-c1ccc(Br)cc1,,metabolite formation,"male Beagle dog, liver microsomes",50 mg/kg daily for 4 weeks,,Vmax,998 ± 51 pmol/min/mg
Cc1n[nH]c(=O)c2nn(-c3ccccc3)c(C)c12,Zika virus,,"Vero, MR766",,relative to: CC50 over EC50,selectivity index,3.7
CN(C)c1cc(CNCCC(C)(C)C)c(O)c2c1C[C@H]1C[C@H]3[C@H](N(C)C)C(O)=C(C(N)=O)C(=O)[C@@]3(O)C(O)=C1C2=O,Streptococcus pneumoniae,"microbial growth, broth dilution",,,,MIC,0.125 µg/mL
CCOC(=O)c1c(-c2ccc(F)c(F)c2)oc2ncccc12,Trypanosoma cruzi,,"3T3 host cells, Tulahuen beta-galactosidase",6 days,,EC50,10.9 µM
C[C@@H](O)[C@H](NC(=O)[C@@H]1CSSC[C@H](NC(=O)[C@@H](Cc2ccccc2)NC(=O)CN2CCN(CC(=O)O)CCN(CC(=O)O)CCN(CC(=O)O)CC2)C(=O)N[C@@H](Cc2ccc(O)cc2)C(=O)N[C@H](Cc2c[nH]c3ccccc23)C(=O)N[C@@H](CCCCN)C(=O)N[C@@H]([C@@H](C)O)C(=O)N1)C(=O)O,AR-42J,radioligand uptake,,"concentration not given, 4 h",,internalized fraction of cell activity,53.1 ± 1.83%
O=C(CSc1nc(-c2ccccc2)cc(C(F)(F)F)n1)Nc1cccc(Cl)c1Cl,"Secretin receptor (SCTR, Homo sapiens, UniProt P47872)","increase of tracer binding, TR-FRET",HEK293 membranes,added: Fluo-Sec 6 nM,,EC50,6.4 ± 3.3 µM
C#CCN(CC(=O)O[C@H]1[C@H](C)O[C@@H](O[C@H]2[C@H](N(C)C)[C@@H](O)[C@H](O[C@H]3[C@@H](CC=O)C[C@@H](C)[C@@H](O[C@H]4CC[C@H](N(C)C)[C@@H](C)O4)/C=C/C=C/C[C@@H](C)OC(=O)C[C@@H](O)[C@@H]3OC)O[C@@H]2C)C[C@@]1(C)O)C(=O)c1ccc(C(F)(F)F)cc1,HGC-27,annexin V/PI flow cytometry,,0.9 µM,,apoptotic cells,70.9%
C[C@@H](c1ccn(Cc2cc(F)c(F)c(F)c2)n1)[C@](O)(Cn1cnnn1)c1ccc(F)cc1F,Candida tropicalis,"growth, broth microdilution",2718,"24 h, 30 °C, ≥50% inhibition",,MIC,< 0.008 µg/mL
CC(=O)c1c(O)c(C)c(O)c2c1OC1=CC(=O)/C3=C(/C)N[C@H](C(=O)O)CC1=CC=C(O)C=C[C@@]2(C)C3=O,Candida tropicalis,microbial killing,,,,MFC,49.3 µM
CCCCCCCCCCCC(=O)NCCC(=O)N[C@@H](CCCNC(=N)N)C(=O)N[C@@H](CCCNC(=N)N)C(=O)N[C@@H](CCCNC(=N)N)C(=O)N[C@@H](CCCNC(=N)N)C(=O)N[C@H](CCCNC(=N)N)C(=O)N[C@H](CCCNC(=N)N)C(=O)N[C@H](CCCNC(=N)N)C(=O)N[C@H](CCCNC(=N)N)C(=O)N[C@H](CCCNC(=N)N)C(=O)N[C@@H](CCCCNC(=S)Nc1ccc2c(c1)C(=O)OC21c2ccc(O)cc2Oc2cc(O)ccc21)C(N)=O,Jurkat,"RP-HPLC fluorescence, measured: Arg peptide metabolite",culture medium,6 h,,peak area,62.6%
CNC1=C([N+](=O)[O-])C2(C(=O)Nc3ccc([N+](=O)[O-])cc32)C2=C(CCCC2=O)O1 (stereo not drawn),Streptococcus pneumoniae,,MTCC 655,"250 µg/mL, 24 h",,growth inhibition,24.7%
CN(Cc1cc(N(C)C)c2c(c1O)C(=O)C1=C(O)[C@]3(O)C(=O)C(C(N)=O)=C(O)[C@@H](N(C)C)[C@@H]3C[C@@H]1C2)CC(C)(C)C,Streptococcus pneumoniae,"microbial growth, broth dilution",,,,MIC,0.25 µg/mL
CC1(CCCCCCCCCCCCOCCCOP(=O)(O)CO[C@H](CO)Cn2ccc(N)nc2=O)COC1,JC polyomavirus,qPCR,"COS-7, MAD-4",,relative to: CC50 over EC50,selectivity index,> 6
Cc1ccc(-c2cn([C@@H]3O[C@H](CO)[C@@H](O)[C@H]3O)c3ncnc(N)c23)c(F)c1,Trichomonas vaginalis,resorufin,"G3, metronidazole-sensitive","24 h + 2 h, 2% O2",,EC50,0.23 ± 0.02 µM
CCCCCc1ccc2c(c1O)C(c1ccc(OC)c(OC)c1)OC2=O (stereo not drawn),Naegleria fowleri,"trophozoite ATP, CellTiter-Glo",ATCC 30808,"concentration not given, 24 h, 37 °C",relative to: untreated,ATP level decrease,98.9%
c1ccc(-c2nc(-c3ccc4ccccc4c3)c[nH]2)cc1,Schistosoma mansoni,,female worms,50 µM,,worm killing,0%
Cc1ccc2nc(-c3ccccc3)c(CN(C)C)n2c1,Trypanosoma cruzi,parasite growth,Tulahuen beta-galactosidase,concentration not given,,activity,inactive
CCCC[C@H](NC(=O)CCCCCCCNC(=O)CN1CCN(CC(=O)O)CCN(CC(=O)O)CC1)C(=O)N[C@H]1CC(=O)NCCCC[C@@H](C(N)=O)NC(=O)[C@H](Cc2c[nH]c3ccccc23)NC(=O)[C@H](CCCNC(=N)N)NC(=O)[C@@H](Cc2ccccc2)NC(=O)[C@H](Cc2c[nH]cn2)NC1=O [copper-64 labelled],,,"C57 mice, tumor","intravenous, 0.37 MBq, 24 h",,tissue uptake,1.54 ± 0.16 %ID/g
S=c1[nH]c2cccc(Cl)c2n1CCOc1ccccc1,Saccharomyces cerevisiae,"reporter gene, measured: Rlm1-lacZ",,"up to 20 µM, added: Calcofluor white",,inhibition,inhibited
CC[C@H](C)[C@H](NC(=O)[C@H](CCCN)NC(=O)[C@H](CC(N)=O)NC(=O)[C@H](Cc1c[nH]c2ccccc12)NC(=O)[C@H](Cc1ccccc1)NC(=O)[C@H](CCCN)NC(=O)[C@H](CCCNC(=N)N)NC(=O)[C@H](CC(C)C)NC(=O)[C@H](Cc1c[nH]c2ccccc12)NC(=O)[C@H](CCCN)NC(=O)[C@H](CCCNC(=N)N)NC(=O)[C@H](CC(C)C)NC(=O)CNC(C)=O)C(=O)N[C@@H](CCCN)C(=O)N[C@@H](CCCNC(=N)N)C(N)=O,Gram-negative bacteria,,,,,geometric mean MIC,3.72 µM
CCCCC/C=C/C(=O)CCc1ccc(O)c(OC)c1,mAb 3-LD3,"antibody binding, indirect competitive ELISA",,added: coating antigen hapten 4-OVA,,IC50,0.00137 µg/mL
C=C(C)[C@@H]1CC[C@]2(COS(=O)(=O)c3ccc(C)cc3)CC[C@]3(C)[C@H](CC[C@@H]4[C@@]5(C)CCCNC(C)(C)[C@@H]5CC[C@]43C)[C@@H]12,Human cytomegalovirus,cytopathic effect,"HFF, AD169",,,EC90,> 1.2 µM

# A few entries again:
SMILES,tested on,test,system,conditions,how to read,endpoint,result
Cc1ccc(-c2cn([C@@H]3O[C@H](CO)[C@@H](O)[C@H]3O)c3ncnc(N)c23)c(F)c1,Trichomonas vaginalis,resorufin,"G3, metronidazole-sensitive","24 h + 2 h, 2% O2",,EC50,0.23 ± 0.02 µM
CCCCCc1ccc2c(c1O)C(c1ccc(OC)c(OC)c1)OC2=O (stereo not drawn),Naegleria fowleri,"trophozoite ATP, CellTiter-Glo",ATCC 30808,"concentration not given, 24 h, 37 °C",relative to: untreated,ATP level decrease,98.9%
